{"data": "Experimental data from different studies", "target": "Bone morphogenetic protein receptor type-1A (BMPR1A, Homo sapiens, UniProt P36894)", "note": "Lines come from different studies, so protocols differ. “And” joins repeats or separate records; there may be more than shown."}
{"Compound": "C=CC(=O)N1CCc2ccc(-n3c(=O)ccc4cnc5ccc(-c6cnn(C)c6)cc5c43)cc21", "test": "KINOMEscan", "setting": "1 µM", "scale": "relative to: DMSO control", "measurement": "remaining binding", "value": "60%"}
{"Compound": "CNC1C[S+]2CC[S+]3CC[S+](C1)[Ru-4]321([N]=C=S)[n]2c3ccc(OC)cc3c3c4c(c5cc(F)c[n+]1c5c32)C(=O)NC4=O (stereo not shown)", "test": "KinomeScan", "setting": "0.1 µM", "scale": "relative to: untreated", "measurement": "remaining binding", "value": "90%"}
{"Compound": "N[C@H]1CC[C@H](Nc2nccc(-c3cccnc3Oc3ccc(NC(=O)NC4CC4)c4ccccc34)n2)CC1", "test": "kinobead competition pulldown", "test system": "HEK293/HCT116 lysate mixture", "setting": "10 µM, 1 h, 4 °C", "scale": "lower = stronger competition", "measurement": "log2 LFQ intensity", "value": "21.7 and 19.9 and 19.6"}
{"Compound": "C=CC(=O)N1CCCC(n2c(=O)c3ncccc3n(Cc3ccc(Oc4ccccc4)cc3)c2=O)C1 (stereo not shown)", "test": "cell-free assay, competition with immobilised ligand", "setting": "1 µM", "measurement": "remaining binding", "value": "90%"}
{"Compound": "CC(C)=CC1OC(C)(C)C2C=C3C(=O)C(Cl)=CC(O)C3C3C(O)C4OC4C(=O)C132 (stereo not shown)", "test": "cell-free assay, competition with immobilised ligand", "setting": "10 µM", "measurement": "remaining binding", "value": "95%"}
{"Compound": "COc1cc(Nc2nc(C)cc(-c3cnn4nc(OC)ccc34)n2)cc(C(F)(F)F)c1", "test": "inhibitor", "setting": "1 µM", "scale": "relative to: control", "measurement": "remaining activity", "value": "100%"}
{"Compound": "CNC(=O)C1CCN(c2cc(C)c(F)cc2NC(=O)c2ccc(-c3cc(O)ccc3C)c(C)c2)CC1", "test": "binding, competition with immobilised ligand", "setting": "1 µM", "measurement": "remaining binding", "value": "100%"}
{"Compound": "Cc1ccc(-c2c(/C=C(\\C#N)C(=O)NC(C)C)n(CCCO)c3ncnc(N)c23)cc1", "test": "binding, competition with immobilised ligand", "setting": "1 µM", "measurement": "remaining binding", "value": "72%"}
{"Compound": "COc1c(Cl)cccc1Nc1c(-c2ccncc2C#C[C@@]2(C)CCCN2C(=O)/C=C/CN(C)C)[nH]c2c1C(=O)NCC2", "test": "binding, competition with immobilised ligand", "setting": "3 µM", "measurement": "remaining binding", "value": "85%"}
{"Compound": "Nc1ncc(-c2cc(-c3cnn(CC(F)(F)F)c3)ncc2F)nc1C(=O)NC1CNCC(F)C1 (stereo not shown)", "test": "enzyme activity", "setting": "1 µM", "scale": "relative to: DMSO control", "measurement": "remaining activity", "value": "112%"}
{"Compound": "Cc1cnc2nc1Nc1cccc(c1)COC/C=C/COCc1cc(ccc1OCCN1CCOCC1)N2", "test": "binding", "setting": "0.1 µM", "measurement": "remaining binding", "value": "98%"}
{"Compound": "CN1CCN(Cc2ccc(-c3ccc(CO[C@H]4CCC[C@@H]4NC(=O)c4cc(-c5cnn(C)c5)cnc4N)cc3)cc2)CC1", "test": "enzyme activity, inhibitor", "setting": "0.1 µM", "measurement": "inhibition", "value": "-6%"}
{"Compound": "Nc1ncc2c(n1)-c1c([nH]c3ccc(C4=CCOCC4)cc13)CCC2", "test": "binding, competition with immobilised ligand", "setting": "1 µM", "measurement": "remaining binding", "value": "70%"}
{"Compound": "CCN1CCN(Cc2ccc(C(=O)Nc3ccc(C)c(NCc4cnc5[nH]ccc5c4OC)c3)cc2C(F)(F)F)CC1", "test": "binding, competition with immobilised ligand", "setting": "1 µM", "measurement": "remaining binding", "value": "100%"}
{"Compound": "COc1cc(Nc2nccc(-c3cnn4nc(OC)ccc34)n2)cc(C(F)(F)F)c1", "test": "binding, competition with immobilised ligand", "setting": "1 µM", "measurement": "remaining binding", "value": "100%"}
{"Compound": "C=CC(=O)N1Cc2nc(-c3cc(-c4cc(Cl)cnc4Cl)c(F)cc3F)n(-c3ccncn3)c2C1", "test": "cell-free assay, inhibitor", "setting": "1 µM", "measurement": "inhibition", "value": "-2.2%"}
{"note": "For quick reference, copied from above:"}
{"Compound": "C=CC(=O)N1CCc2ccc(-n3c(=O)ccc4cnc5ccc(-c6cnn(C)c6)cc5c43)cc21", "test": "KINOMEscan", "setting": "1 µM", "scale": "relative to: DMSO control", "measurement": "remaining binding", "value": "60%"}
{"Compound": "CN1CCN(Cc2ccc(-c3ccc(CO[C@H]4CCC[C@@H]4NC(=O)c4cc(-c5cnn(C)c5)cnc4N)cc3)cc2)CC1", "test": "enzyme activity, inhibitor", "setting": "0.1 µM", "measurement": "inhibition", "value": "-6%"}
